# Results gathered from unrelated publications.
# Lines come from different studies, so protocols differ. ± marks the error that the study gave.
# WWOX WW1 domain: WW domain-containing oxidoreductase, WW1 domain (WWOX, Homo sapiens, UniProt Q9NZC7)
# Chain of UniProt Q9NZC7 (whole entry, looked up): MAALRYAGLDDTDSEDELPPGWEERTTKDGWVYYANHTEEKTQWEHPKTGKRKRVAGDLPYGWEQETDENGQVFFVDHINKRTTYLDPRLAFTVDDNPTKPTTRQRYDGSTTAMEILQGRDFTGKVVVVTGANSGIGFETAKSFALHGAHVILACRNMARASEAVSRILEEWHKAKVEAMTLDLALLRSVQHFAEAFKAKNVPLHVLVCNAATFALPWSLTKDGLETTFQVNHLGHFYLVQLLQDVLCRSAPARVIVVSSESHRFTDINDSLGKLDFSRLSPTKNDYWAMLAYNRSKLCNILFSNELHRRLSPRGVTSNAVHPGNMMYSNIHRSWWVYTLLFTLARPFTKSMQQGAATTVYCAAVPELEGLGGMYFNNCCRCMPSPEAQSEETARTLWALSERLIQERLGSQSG
# GRM4: Metabotropic glutamate receptor 4 (GRM4, Homo sapiens, UniProt Q14833)
# Chain of UniProt Q14833 (whole entry, looked up): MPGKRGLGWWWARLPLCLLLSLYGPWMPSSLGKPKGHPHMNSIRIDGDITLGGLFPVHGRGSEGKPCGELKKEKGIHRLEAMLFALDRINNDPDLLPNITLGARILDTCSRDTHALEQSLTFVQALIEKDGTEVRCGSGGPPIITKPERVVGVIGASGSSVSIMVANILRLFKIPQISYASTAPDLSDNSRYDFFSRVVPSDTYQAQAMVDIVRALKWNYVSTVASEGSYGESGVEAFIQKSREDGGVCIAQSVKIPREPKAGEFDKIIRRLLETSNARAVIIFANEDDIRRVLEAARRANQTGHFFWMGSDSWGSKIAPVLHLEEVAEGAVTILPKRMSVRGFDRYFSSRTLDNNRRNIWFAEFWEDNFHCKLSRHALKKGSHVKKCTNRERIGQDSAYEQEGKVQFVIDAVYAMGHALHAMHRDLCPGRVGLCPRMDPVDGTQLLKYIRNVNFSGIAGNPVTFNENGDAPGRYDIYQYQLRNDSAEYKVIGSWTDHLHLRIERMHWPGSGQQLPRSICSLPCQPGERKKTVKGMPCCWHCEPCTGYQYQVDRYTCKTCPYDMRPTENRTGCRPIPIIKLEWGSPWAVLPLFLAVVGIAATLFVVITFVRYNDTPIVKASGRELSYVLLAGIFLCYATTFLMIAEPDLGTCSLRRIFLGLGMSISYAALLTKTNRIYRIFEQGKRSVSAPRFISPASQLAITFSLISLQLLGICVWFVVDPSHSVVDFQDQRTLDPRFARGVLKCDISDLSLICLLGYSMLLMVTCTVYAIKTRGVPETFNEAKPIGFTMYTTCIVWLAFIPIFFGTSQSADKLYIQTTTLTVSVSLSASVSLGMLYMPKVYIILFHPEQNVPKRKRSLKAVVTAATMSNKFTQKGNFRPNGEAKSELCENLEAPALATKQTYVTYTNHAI
# SCN9A: Sodium channel protein type 9 subunit alpha (SCN9A, Homo sapiens, UniProt Q15858)
# Chain of UniProt Q15858 (whole entry, looked up): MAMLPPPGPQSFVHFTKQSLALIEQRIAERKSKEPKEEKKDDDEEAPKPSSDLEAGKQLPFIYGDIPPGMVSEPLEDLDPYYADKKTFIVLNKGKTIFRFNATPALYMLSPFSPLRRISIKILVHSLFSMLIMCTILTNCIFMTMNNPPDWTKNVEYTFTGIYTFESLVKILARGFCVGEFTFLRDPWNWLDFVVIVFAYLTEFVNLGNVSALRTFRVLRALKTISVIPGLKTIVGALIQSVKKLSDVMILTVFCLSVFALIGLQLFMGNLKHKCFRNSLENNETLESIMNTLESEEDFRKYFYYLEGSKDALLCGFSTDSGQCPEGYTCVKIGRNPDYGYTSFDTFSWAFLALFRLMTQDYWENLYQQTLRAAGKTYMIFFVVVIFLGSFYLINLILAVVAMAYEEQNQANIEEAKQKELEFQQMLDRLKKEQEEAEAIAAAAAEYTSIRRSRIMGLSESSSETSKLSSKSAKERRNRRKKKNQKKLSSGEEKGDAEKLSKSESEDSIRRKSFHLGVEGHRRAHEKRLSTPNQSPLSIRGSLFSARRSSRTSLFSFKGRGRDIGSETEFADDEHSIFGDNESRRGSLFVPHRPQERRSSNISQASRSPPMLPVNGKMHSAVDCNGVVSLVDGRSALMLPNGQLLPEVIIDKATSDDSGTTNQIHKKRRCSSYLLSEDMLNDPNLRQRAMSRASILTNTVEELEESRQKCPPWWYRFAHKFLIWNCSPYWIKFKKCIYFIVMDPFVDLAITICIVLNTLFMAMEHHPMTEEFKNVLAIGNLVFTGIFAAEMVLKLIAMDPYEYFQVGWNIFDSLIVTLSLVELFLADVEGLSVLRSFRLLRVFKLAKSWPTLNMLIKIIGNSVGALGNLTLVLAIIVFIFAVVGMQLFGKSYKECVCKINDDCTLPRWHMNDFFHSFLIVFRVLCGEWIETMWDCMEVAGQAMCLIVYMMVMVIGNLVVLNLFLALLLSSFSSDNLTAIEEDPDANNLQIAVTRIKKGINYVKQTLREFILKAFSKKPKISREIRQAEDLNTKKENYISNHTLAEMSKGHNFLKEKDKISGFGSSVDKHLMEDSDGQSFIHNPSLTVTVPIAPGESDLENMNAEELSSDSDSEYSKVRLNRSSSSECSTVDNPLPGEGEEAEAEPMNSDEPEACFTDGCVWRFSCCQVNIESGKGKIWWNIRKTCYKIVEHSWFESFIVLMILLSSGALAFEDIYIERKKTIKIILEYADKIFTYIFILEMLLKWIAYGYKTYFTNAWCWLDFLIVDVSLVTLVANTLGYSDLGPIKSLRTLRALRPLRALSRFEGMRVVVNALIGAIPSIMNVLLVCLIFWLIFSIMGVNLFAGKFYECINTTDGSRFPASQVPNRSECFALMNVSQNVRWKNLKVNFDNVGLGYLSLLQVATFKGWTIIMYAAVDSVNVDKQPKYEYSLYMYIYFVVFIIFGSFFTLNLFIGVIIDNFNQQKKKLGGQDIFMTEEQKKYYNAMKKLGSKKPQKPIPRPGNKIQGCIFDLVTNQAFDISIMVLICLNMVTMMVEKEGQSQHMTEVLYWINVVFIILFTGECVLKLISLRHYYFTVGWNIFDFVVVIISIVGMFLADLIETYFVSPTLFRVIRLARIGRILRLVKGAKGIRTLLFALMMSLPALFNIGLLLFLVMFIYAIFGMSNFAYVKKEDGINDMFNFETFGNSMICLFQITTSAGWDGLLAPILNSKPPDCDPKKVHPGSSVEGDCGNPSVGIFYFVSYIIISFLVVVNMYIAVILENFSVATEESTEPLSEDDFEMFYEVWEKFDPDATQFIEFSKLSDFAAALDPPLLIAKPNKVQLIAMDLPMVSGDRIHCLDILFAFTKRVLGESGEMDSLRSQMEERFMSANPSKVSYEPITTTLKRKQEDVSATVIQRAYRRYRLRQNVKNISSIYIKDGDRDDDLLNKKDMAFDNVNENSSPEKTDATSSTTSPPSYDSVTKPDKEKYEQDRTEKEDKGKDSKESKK
# HSPA1A: Heat shock 70 kDa protein 1A (HSPA1A, Homo sapiens, UniProt P0DMV8)
# Chain of UniProt P0DMV8 (whole entry, looked up): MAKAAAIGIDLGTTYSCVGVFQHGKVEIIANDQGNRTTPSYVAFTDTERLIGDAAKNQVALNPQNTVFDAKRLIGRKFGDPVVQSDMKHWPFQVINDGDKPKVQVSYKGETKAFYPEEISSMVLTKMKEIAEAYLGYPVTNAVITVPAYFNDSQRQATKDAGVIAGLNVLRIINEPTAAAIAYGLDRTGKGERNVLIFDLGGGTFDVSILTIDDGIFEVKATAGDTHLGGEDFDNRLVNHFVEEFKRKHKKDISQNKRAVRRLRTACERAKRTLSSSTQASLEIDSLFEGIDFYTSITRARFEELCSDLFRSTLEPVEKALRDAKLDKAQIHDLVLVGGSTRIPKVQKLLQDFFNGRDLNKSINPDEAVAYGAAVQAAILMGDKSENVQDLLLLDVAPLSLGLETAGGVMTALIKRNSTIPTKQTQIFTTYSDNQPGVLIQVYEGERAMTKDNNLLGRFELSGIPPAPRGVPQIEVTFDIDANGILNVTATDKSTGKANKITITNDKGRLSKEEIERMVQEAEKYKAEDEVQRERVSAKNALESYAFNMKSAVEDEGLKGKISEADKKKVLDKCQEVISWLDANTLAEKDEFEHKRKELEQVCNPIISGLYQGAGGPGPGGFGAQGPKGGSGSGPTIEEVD
# MAL12: Alpha-glucosidase MAL12 (MAL12, Saccharomyces cerevisiae S288c, UniProt P53341)
# Chain of UniProt P53341 (whole entry, looked up): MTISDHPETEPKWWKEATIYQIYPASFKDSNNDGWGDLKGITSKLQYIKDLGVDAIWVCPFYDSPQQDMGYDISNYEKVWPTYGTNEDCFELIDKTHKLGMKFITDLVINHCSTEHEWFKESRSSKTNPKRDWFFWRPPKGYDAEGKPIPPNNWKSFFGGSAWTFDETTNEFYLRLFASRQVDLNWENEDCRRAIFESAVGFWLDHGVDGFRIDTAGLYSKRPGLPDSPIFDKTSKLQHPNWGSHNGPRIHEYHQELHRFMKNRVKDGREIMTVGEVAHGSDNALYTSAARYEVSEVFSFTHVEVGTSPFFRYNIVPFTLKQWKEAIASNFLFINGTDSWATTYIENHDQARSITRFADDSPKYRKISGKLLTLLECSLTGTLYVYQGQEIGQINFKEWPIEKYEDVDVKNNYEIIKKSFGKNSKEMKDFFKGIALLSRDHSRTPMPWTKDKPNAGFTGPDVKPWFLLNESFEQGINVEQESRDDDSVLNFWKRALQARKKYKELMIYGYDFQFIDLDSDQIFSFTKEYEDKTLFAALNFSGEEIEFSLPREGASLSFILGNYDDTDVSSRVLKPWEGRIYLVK
# Dual specificity calcium/calmodulin-dependent 3',5'-cyclic nucleotide phosphodiesterase 1B: Dual specificity calcium/calmodulin-dependent 3',5'-cyclic nucleotide phosphodiesterase 1B (Homo sapiens, UniProt Q01064)
# HBA1 with beta chain: Hemoglobin subunit alpha, with beta chain (HBA1, Homo sapiens, UniProt P69905)
# Chain of UniProt P69905 (whole entry, looked up): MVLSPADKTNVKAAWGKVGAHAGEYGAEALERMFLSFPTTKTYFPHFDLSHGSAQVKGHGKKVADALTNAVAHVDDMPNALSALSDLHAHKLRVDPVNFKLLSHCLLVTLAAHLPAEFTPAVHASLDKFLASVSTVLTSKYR
# Chain of UniProt Q9UHK6 (whole entry, looked up): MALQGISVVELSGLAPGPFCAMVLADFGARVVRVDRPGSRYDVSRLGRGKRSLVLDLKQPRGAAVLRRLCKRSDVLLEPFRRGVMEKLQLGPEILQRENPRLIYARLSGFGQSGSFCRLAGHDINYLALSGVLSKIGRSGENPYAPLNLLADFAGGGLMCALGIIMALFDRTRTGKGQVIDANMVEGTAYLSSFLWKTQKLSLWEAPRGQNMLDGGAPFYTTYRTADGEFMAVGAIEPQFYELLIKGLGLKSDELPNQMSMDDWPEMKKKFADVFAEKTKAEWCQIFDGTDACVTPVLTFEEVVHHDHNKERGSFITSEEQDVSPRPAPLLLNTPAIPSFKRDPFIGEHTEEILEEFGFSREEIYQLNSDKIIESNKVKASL
Substance,target,test,test system,conditions,how to read,endpoint,result
YVQKNGGKL,"H-2 class I histocompatibility antigen, D-B alpha chain, 17 (H2-D1, Mus musculus, UniProt P01899)","H2-D binding, flow cytometry","peptide, RMA-S","10 µg per 100 µL, 3 h",,MFI increase,191%
CC[C@H](C)[C@H](NC(=O)[C@@H]1CCCN1C(=O)[C@@H]1CCCN1C(=O)[C@@H]1CCCN1C(=O)[C@@H](NC(=O)[C@H](CC(N)=O)NC(=O)[C@@H](N)Cc1ccccc1)[C@@H](C)CC)C(=O)N[C@@H](Cc1ccc(O)cc1)C(=O)N[C@H](C(=O)N[C@@H](CO)C(=O)N[C@@H](CCCNC(=N)N)C(=O)N[C@@H](C)C(=O)O)[C@@H](C)O,WWOX WW1 domain,"binding, ITC",,"pH 7.0, 25 °C",,ΔG,-4.67 ± 0.05 kcal/mol
CN(C)C(=O)CCSC(SCCC(=O)O)c1cccc(/C=C/c2ccc3ccc(Cl)cc3n2)c1 (centres unmarked),"ATP-binding cassette sub-family C member 2 (Rattus norvegicus, UniProt Q63120)","inhibitor, intestinal perfusion",rat,"50 µM, with: naringenin 10 µM",,naringenin glucuronide excretion into lumen,no effect
O=C(Nc1ccccn1)C12CC1/C(=N\O)c1ccccc1O2 (centres unmarked),GRM4,"potentiator, calcium mobilization",CHO expressing hmGluR4/Gqi5,with: glutamate EC20,baseline: maximal glutamate,maximal response,160 ± 10.6%
O=c1c2ccccc2[se]n1-c1ccccc1,"Alpha-methylacyl-CoA racemase (AMACR, Homo sapiens, UniProt Q9UHK6)",enzyme activity,,"100 µM, with: thiol reagents TBP and iodoacetamide",baseline: untreated,remaining activity,~50%
COCCN1CCN(C(C)C(=O)Nc2c(C)csc2C(=O)OC)CC1 (centres unmarked),SCN9A,cell membrane chromatography,,,higher = stronger binding,capacity factor k′,107
CC(C)C[C@H](NC(=O)[C@@H](NC(=O)[C@@H](N)[C@@H](C)O)C(C)C)C(=O)N1CCC[C@H]1C(=O)N1CCC[C@H]1C(=O)N1CCC[C@H]1C(=O)N1CCC[C@H]1C(=O)N[C@@H](Cc1ccc(O)cc1)C(=O)N[C@@H](CCCNC(=N)N)C(=O)N[C@@H](C)C(=O)N[C@@H](CCCNC(=N)N)C(=O)N[C@@H](CC(N)=O)C(=O)O,WWOX WW1 domain,"binding to WW1 domain, isothermal titration calorimetry",,"concentration not given, pH 7.0, 25 °C",,binding enthalpy ΔH,-11.4 ± 1.41 kcal/mol
KACESRCTKLEYDPR,human IgE,peptide microarray,"peptide, peanut-allergic patient sera","concentration not given, 16 h, 4 °C",,patients with IgE binding,50%
CC1=C(C(=O)OCc2ccccc2)C(c2ccc(-c3ccccc3)cc2)NC(=S)N1Cc1ccc(-c2nnn[nH]2)cc1 (centres unmarked),HSPA1A,"ATPase activity, inhibitor",,"100 µM, without Hsp40","baseline: DMSO, negative means inhibition",fold change in activity,-1.4 fold
COc1cc2oc(-c3ccccc3)cc(=O)c2c(OC)c1O,MAL12,"enzyme activity, inhibitor, absorbance",,250 µM,,inhibition,98.4%
Clc1cccc(Nc2nnc(-c3ccccc3)c3ccccc23)c1,"Dual specificity calcium/calmodulin-dependent 3',5'-cyclic nucleotide phosphodiesterase 1B","cAMP hydrolysis, inhibitor, fluorescence polarization",recombinant enzyme,"up to 100 µM, 30 min preincubation, 30 °C, with: fluorescein-cAMP 25 nM",,IC50,inactive
CC(C)C[C@H](NC(=O)[C@@H](NC(=O)[C@@H](N)[C@@H](C)O)C(C)C)C(=O)N1CCC[C@H]1C(=O)N1CCC[C@H]1C(=O)N1CCC[C@H]1C(=O)N1CCC[C@H]1C(=O)N[C@@H](Cc1ccc(O)cc1)C(=O)N[C@@H](C)C(=O)N[C@@H](Cc1c[nH]cn1)C(=O)N[C@@H](CCCNC(=N)N)C(=O)N[C@@H](CC(N)=O)C(=O)O,WWOX WW1 domain,"binding to WW1 domain, isothermal titration calorimetry",,"pH 7.0, 25 °C",,binding free energy ΔG,-4.87 ± 0.14 kcal/mol
O=Cc1c(O)cccc1OCc1cccc(CO)n1,HBA1 with beta chain,"binding, cation-exchange HPLC",,37 °C,,kon,16.9 M⁻¹ s⁻¹
COc1ccc(-c2cc(=O)c3ccc(O)cc3o2)cc1,MAL12,"enzyme activity, inhibitor",,"10 µM, with: p-nitrophenyl α-D-glucopyranoside",,inhibition,< 1%
Cc1ccc(NC(=O)N2CCN(c3ccnc(Nc4ccc(Cl)cc4)n3)[C@@H](C)C2)cc1,MAL12,"enzyme activity, inhibitor",Saccharomyces cerevisiae,with: p-nitrophenyl glucoside substrate,baseline: S over R enantiomer,activity ratio,~3 fold
COc1cc2c(cc1OC)-c1c/c(=N\c3c(C)cc(C)cc3C)n(C)c(=O)n1CC2,"Dual specificity calcium/calmodulin-dependent 3',5'-cyclic nucleotide phosphodiesterase 1B","cGMP hydrolysis, inhibitor",,up to 50 µM,,IC50,inactive
CC/C=C/[C@H](CC)C/C(=C/[C@@]1(CC)C[C@H](CC)[C@H](CC(=O)O)OO1)CC,"EDNRA (Homo sapiens, UniProt P25101)","ligand displacement, radioligand",,"10 µg/mL, 30 min",,remaining binding,85%
O=c1ccn([C@@H]2O[C@H](COP(=O)(O)OP(=O)(O)O)[C@@H](O)[C@H]2O)c(=O)[nH]1,"ABO (Homo sapiens, UniProt P16442, G235S/G268A/L266M/R176G)",ZZ-exchange NMR,,"250 µM, with: H-disaccharide 1.5 mM",,exchange rate constant kBA,2.5 ± 0.6 Hz
COC(=O)c1scc(C)c1NC(=O)C(C)N1CCCCC1 (centres unmarked),SCN9A,cell membrane chromatography,,,higher = stronger binding,capacity factor k′,10.6
COc1ccc(OCC2c3cc(OC)c(OC)cc3CCN2C(=O)c2cccc(Cl)c2)cc1 (centres unmarked),"Glutamate receptor ionotropic, NMDA 2D, with NR1 (Rattus norvegicus, UniProt Q62645)","NR1/NR2D channel, single channel recording",,10 µM,baseline: control,open probability,190%
COc1cc2c(=O)c(OC)c(-c3ccccc3)oc2c(O)c1OC,MAL12,"enzyme activity, inhibitor, absorbance",,10 µM,,inhibition,8.2%
COCc1ccc(C=O)o1,"Hemoglobin subunit alpha, with sickle beta chain (HBA1, Homo sapiens, UniProt P69905)",oxygen affinity,sickle red cell lysate,2 mM,baseline: untreated,P50 change,39.4 ± 8.3%
C[N+](C)(C)C[C@@H](O)CC(=O)[O-],"SLC22A5 (Homo sapiens, UniProt O76082)","transporter uptake, inhibitor",,200 µM,,inhibition,89.9%
O=c1c(O)c(-c2ccc(O)c(O)c2)oc2cc(O)ccc12,"Kcnh1, Δ2–173 (Mus musculus, UniProt Q60603)","ion current, inside-out patch clamp",,"30 µM, amino-terminal deletion mutant",,activation V1/2,-39.4 mV
COc1ccccc1/C=N/Nc1nc2ccccc2nc1C,GRM4,"potentiation of glutamate response, positive allosteric modulator",CHO cells expressing Gqi5,with: glutamate EC20,,EC50,inactive
CC1=C(C(=O)OCc2ccccc2)C(c2ccc(-c3ccccc3)cc2)N(Cc2ccc(-c3nnn[nH]3)cc2)C(=O)N1 (centres unmarked),HSPA1A,"ATPase activity, inhibitor",,"100 µM, without Hsp40","baseline: DMSO, negative means inhibition",fold change in activity,-1.2 fold
CCCOCc1ccc(C=O)o1,HBA1 with beta chain,refers to: haemoglobin A adduct,human normal whole blood,"2 mM, 24 h, hematocrit 30%",,peak modification,25.4%
Nc1ccc2cccc(O)c2n1,"PY04617 (Plasmodium yoelii, UniProt Q7RFT5)",ultrafiltration HPLC-UV,,"0.1 mM, pH 7.25, 4 °C, 6.5% DMSO, with: methionine competitor",,UV signal reduction,91.5 ± 1.4%
CCCCCCCCCCCC(=O)O,"chemosensory protein 3 (Chilo suppressalis, UniProt V9PY40)","binding, competitive ligand, fluorescence competitive binding",,"highest concentration tested, pH 7.4, protein 2 µM, with: 1-NPN 2 µM",baseline: no ligand,remaining 1-NPN fluorescence,72.5 ± 2.04%
DDLKQKACESRCTKL,human IgE,peptide microarray,"peptide, peanut-allergic patient sera","concentration not given, 16 h, 4 °C",,patients with IgE binding,0%
COC(=O)c1scc(C)c1NC(=O)C(C)N(CCO)CCO (centres unmarked),SCN9A,cell membrane chromatography,,,higher = stronger binding,capacity factor k′,0
COc1c(O)cc(O)c2c(=O)cc(-c3ccc(O)cc3)oc12,MAL12,"enzyme activity, inhibitor",,100 µM,,inhibition,> 99%

# Some of these lines once more:
Substance,target,test,test system,conditions,how to read,endpoint,result
Cc1ccc(NC(=O)N2CCN(c3ccnc(Nc4ccc(Cl)cc4)n3)[C@@H](C)C2)cc1,MAL12,"enzyme activity, inhibitor",Saccharomyces cerevisiae,with: p-nitrophenyl glucoside substrate,baseline: S over R enantiomer,activity ratio,~3 fold
COCCN1CCN(C(C)C(=O)Nc2c(C)csc2C(=O)OC)CC1 (centres unmarked),SCN9A,cell membrane chromatography,,,higher = stronger binding,capacity factor k′,107
COc1ccccc1/C=N/Nc1nc2ccccc2nc1C,GRM4,"potentiation of glutamate response, positive allosteric modulator",CHO cells expressing Gqi5,with: glutamate EC20,,EC50,inactive
